Assay results from different studies.
Each numbered part is a random draw from the data of one study; scales do not carry over between parts. Changes are numbered by the printed parent chain.

Study 1 — target: CCNF, cyclin fold, Cln2 fusion (human); technique: yeast growth competition, sequencing; sample: yeast; setting: strong parent motif; baseline: not given; reading: higher = stronger binding
Parent: RBL2 docking peptide (human); STTRRRLFVENDS
For `SPTRRRLFVENDS [T2P]`, “normalised enrichment score” read 6.84.
Under “normalised enrichment score”, `STTRRRLFVENDM [S13M]` is recorded as 8.05.
`STTRKRLLVENDS [R5K F8L]`: “normalised enrichment score” 0.89.
For `STTRRRLFVLNDS [E10L]`, “normalised enrichment score” read 7.03.
Under “normalised enrichment score”, `STTRRRLFVELDS [N11L]` is recorded as 9.6.
For `MTTRRRLFVENDS [S1M]`, “normalised enrichment score” read 8.37.
`STTRRRLFVTNDS [E10T]`: “normalised enrichment score” 7.13.
For `STTRRRLFVEFDS [N11F]`, “normalised enrichment score” read 9.26.
`STTRRRLFVENDE [S13E]`: “normalised enrichment score” 8.41.
`STTRRRLFVEEDS [N11E]` — result for “normalised enrichment score”: 8.65.
For `STTRRRLFVYNDS [E10Y]`, “normalised enrichment score” read 6.26.
`STTRYRLFVENDS [R5Y]`: “normalised enrichment score” 0.771.
`LTTRRRLFVENDS [S1L]`: “normalised enrichment score” 9.32.
`STPRRRLFVENDS [T3P]`: “normalised enrichment score” 7.41.
For `STTRRRLFVETDS [N11T]`, “normalised enrichment score” read 8.3.
`STYRRRLFVENDS [T3Y]`: “normalised enrichment score” 6.78.
Under “normalised enrichment score”, `STTRRRLFVENDT [S13T]` is recorded as 8.31.
Under “normalised enrichment score”, `STTRRRLFVENDF [S13F]` is recorded as 8.76.
For `STTRRLLFVENDS [R6L]`, “normalised enrichment score” read 7.41.
`STTRRRLFVEMDS [N11M]`: “normalised enrichment score” 9.25.

Study 2 — target: UBE2Z UBC core domain (UniProt Q9H832); technique: yeast two-hybrid; sample: yeast; setting: mostly zero background; baseline: not given; reading: higher = stronger interaction
Chain of UniProt Q9H832 (whole entry, looked up): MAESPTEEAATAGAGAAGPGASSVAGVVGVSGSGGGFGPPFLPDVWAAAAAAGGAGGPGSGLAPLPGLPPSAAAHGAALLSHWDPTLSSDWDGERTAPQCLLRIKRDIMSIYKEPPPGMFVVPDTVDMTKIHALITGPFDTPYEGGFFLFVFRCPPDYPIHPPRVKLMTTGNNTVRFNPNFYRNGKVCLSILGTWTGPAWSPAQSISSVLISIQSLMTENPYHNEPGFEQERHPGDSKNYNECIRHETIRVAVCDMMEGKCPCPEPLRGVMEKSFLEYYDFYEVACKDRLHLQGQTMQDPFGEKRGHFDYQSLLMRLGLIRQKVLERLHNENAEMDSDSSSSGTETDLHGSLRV
B1: RNF19A RING domain (UniProt Q9NV58); chain ISKQIGDFIECPLCLLRHSKDRFPDIMTCHHRSCVDCLRQYLRIEISESRVNISCPECTERFNPHDIR
B2: DZIP3 RING domain (UniProt Q86Y13); chain PDEEEEEEEPCVICHENLSPENLSVLPCAHKFHAQCIRPWLMQQGTCPTCRLHVLLPEEFP
B3: RFWD3 RING domain (UniProt Q6PCD5); chain ASMDEEEGDTCTICLEQWTNAGDHRLSALRCGHLFGYRCISTWLKGQVRKCPQCNKKARHSDIVV
B4: MAP3K1 RING domain (UniProt Q13233); chain NSIKDEEEQMCPICLLGMLDEESLTVCEDGCRNKLHHHCMSIWAEECRRNREPLICPLCRSKWRSHDFYS
B5: RBCK1 RING domain (UniProt Q9BYM8); chain SLVLNTEPAECPVCYSVLAPGEAVVLRECLHTFCRECLQGTIRNSQEAEVSCPFIDNTYSCSGKLLEREIK
B6: MDM4 RING domain (UniProt O15151); chain MEDCQNLLKPCSLCEKRPRDGNIIHGRTGHLVTCFHCARRLKKAGASCPICKKEIQLVIKVF
B7: SH3RF1 RING domain (UniProt Q7Z6J0); chain DESALLDLLECPVCLERLDASAKVLPCQHTFCKRCLLGIVGSRNELRCPECRTLVGSGVEEL
B8: DTX2 RING domain (UniProt Q86UW9); chain EELKVPPDEDCIICMEKLSTASGYSDVTDSKAIGSLAVGHLTKCSHAFHLLCLLAMYCNGNKDGSLQCPSCKTIYGEKTGTQ
Under “lacZ reporter activity”, `B1 (RNF19A RING domain)` is recorded as 0.
`B2 (DZIP3 RING domain)` — result for “lacZ reporter activity”: 0.
`B3 (RFWD3 RING domain)`: “lacZ reporter activity” 0.
`YQNEVDDDLVCHICLQPLLQPLDTPCGHTFCYKCLRNFLQEKDFCPLDRKRLHFKLCKK (LNX2 RING domain (UniProt Q8N448))` — result for “lacZ reporter activity”: 0.
For `B4 (MAP3K1 RING domain)`, “lacZ reporter activity” read 0.
For `B5 (RBCK1 RING domain)`, “lacZ reporter activity” read 0.
`B6 (MDM4 RING domain)` — result for “lacZ reporter activity”: 0.
`B7 (SH3RF1 RING domain)`: “lacZ reporter activity” 0.
`KETIKKTTKPCPRCHVPVEKNGGCMHMKCPQPQCRLEWCWNCGCEWNRVCMG (PRKN RING domain (UniProt O60260))` — result for “lacZ reporter activity”: 0.
Under “lacZ reporter activity”, `NLSELTPYILCSICKGYLIDATTITECLHTFCKSCIVRHFYYSNRCPKCNIVVHQTQPLY (PCGF6 RING domain (UniProt Q9BYE7))` is recorded as 0.
`B8 (DTX2 RING domain)`: “lacZ reporter activity” 0.

Study 3 — technique: universal PBM; form: double-stranded DNA, one strand shown; sample: in vitro; concentration: not given; reading: higher = stronger binding
Target: Sal-like protein 4, full length isoform B (SALL4, Homo sapiens, UniProt Q9UJQ4-2, residues 1-616)
Setting: 8-mer, flanks averaged, mean of replicates
`GAATTTGC` gave an E-score of 0.164.
The E-score of `CTAATGCA` is reported as 0.106.
The E-score of `TAATGGGA` is reported as 0.173.
With `GGCAGTAA` the E-score was -0.0977.
The E-score of `AGAGACGA` is reported as 0.00102.
`AGGCATCG` gave an E-score of -0.189.
The E-score of `CTTTGCTA` is reported as 0.115.
The E-score of `ATAATTTC` is reported as 0.379.
`GAGCTTTA` gave an E-score of 0.0367.
`CACACCGA` has an E-score of -0.117.
`ATTTGTAA` has an E-score of 0.289.
`GGCATGAA` has an E-score of 0.0026.
With `CCAAGCTA` the E-score was -0.0751.
For `ACAGTTCA`, the E-score was 0.151.
For `CCTCTACG`, the E-score was -0.159.
With `GCGAACGC` the E-score was -0.137.
For `AACCGCAG`, the E-score was -0.236.
`AGGGAGGC` gave an E-score of -0.267.

Study 4 — technique: RNA Bind-n-Seq; form: RNA; sample: in vitro; concentration: 1 µM; setting: whole 134-nt RNA, ends assumed; together with: 150 mM KCl; baseline: input library; reading: higher = stronger binding
Target: Ras GTPase-activating protein-binding protein 1, RRM domain (G3BP1, Homo sapiens, UniProt Q13283)
Chain of UniProt Q13283 (whole entry, looked up): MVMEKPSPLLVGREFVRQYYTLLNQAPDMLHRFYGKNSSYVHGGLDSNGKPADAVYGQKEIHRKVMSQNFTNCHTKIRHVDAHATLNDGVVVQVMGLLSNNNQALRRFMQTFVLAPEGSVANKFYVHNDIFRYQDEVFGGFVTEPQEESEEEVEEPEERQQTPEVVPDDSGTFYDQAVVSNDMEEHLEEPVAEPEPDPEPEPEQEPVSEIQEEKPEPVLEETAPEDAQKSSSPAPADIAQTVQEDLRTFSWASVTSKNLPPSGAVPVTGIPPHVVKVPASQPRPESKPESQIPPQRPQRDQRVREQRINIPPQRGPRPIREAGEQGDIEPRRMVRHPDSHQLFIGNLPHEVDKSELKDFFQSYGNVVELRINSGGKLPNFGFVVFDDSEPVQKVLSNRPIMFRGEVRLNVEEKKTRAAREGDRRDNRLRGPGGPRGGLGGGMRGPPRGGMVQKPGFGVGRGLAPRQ
With `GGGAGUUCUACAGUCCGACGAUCCAAGUCCUGUGCUACACAUCGUAUGUACCGAAUCGGGCCCGGCCCGGGGCCCGGGGAAAGUAUUAUGUUACGCCGUUCGGAUCUGCACUUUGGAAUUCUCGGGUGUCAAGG` the log2 enrichment was -0.62.
With `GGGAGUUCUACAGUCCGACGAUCUCAAGUCCUGUGCUACACAUCGUAUGUACCGAAUCGGGCCCGGGCCCGGCCCGGAAAGUAUUAUGUUACGCCGUUCGGAUCUGCACUUCCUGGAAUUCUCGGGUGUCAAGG` the log2 enrichment was -0.498.
With `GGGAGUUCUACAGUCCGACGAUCCCUGUGCUACACAUCGUAUGUACCGAAUCGGGCCCCCCGGGGCCCCCCGGGGCCCCCCGGGAAAGUAUUAUGUUACGCCGUUCGGAUCUGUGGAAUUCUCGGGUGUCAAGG` the log2 enrichment was -0.653.
The log2 enrichment of `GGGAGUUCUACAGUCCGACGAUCCACAGACAACACGCACCCACACAGACACGGAGGGAAGGGGUUGGGAUGGGGACAGGGUGCACAGCAGGGCGGGGUAGGACCCCAGCCCCUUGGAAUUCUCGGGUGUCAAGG` is reported as -0.0077.
For `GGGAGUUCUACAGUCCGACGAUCCUCAAGUCCUGUGCUACACAUCGUAUGUACCGAAUCGGCCGGGCCGGGGCCGGAAAGUAUUAUGUUACGCCGUUCGGAUCUGCACUUCCAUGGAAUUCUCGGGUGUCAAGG`, the log2 enrichment was -0.458.
`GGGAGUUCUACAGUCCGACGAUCGCGGACCGAGAAAGUCGUUACGAGGAAGAAGAAGAACAAAGUCGAAGUAUGAGCCGGAAGAGGAAGGCAUCUGUGCACAGUUCGGGCCGUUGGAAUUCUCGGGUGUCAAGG` gave a log2 enrichment of -0.0206.
`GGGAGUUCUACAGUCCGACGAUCCACAGACAACACGCACCCACACAGACACAGAGGGAAGGGGUUGGGAUGGGGACAGGGUGCCCAGCAGGGCGGGGUAGGACCCCAGCCCCUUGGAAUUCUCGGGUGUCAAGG` gave a log2 enrichment of 0.057.
The log2 enrichment of `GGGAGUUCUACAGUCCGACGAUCUGGGAGGUGGAUUUUGUUUAUUUUUUUAGCUCAUUUCCAGGGGUGGGAAUUUUUUUUUAAUAUGUGUCAUGAAUAAAGUUGUUUCUGAAAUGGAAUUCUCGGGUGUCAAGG` is reported as 1.15.
With `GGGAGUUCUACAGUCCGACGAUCCCUCAAGUCCUGUGCUACACAUCGUAUGUACCGAAUCGGGCGGGCGGCGGGGAAAGUAUUAUGUUACGCCGUUCGGAUCUGCACUUCCAGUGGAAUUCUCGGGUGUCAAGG` the log2 enrichment was -0.0276.

Excerpt of the above (study 3):
`GGCATGAA` has an E-score of 0.0026.
For `AACCGCAG`, the E-score was -0.236.
`GAGCTTTA` gave an E-score of 0.0367.
The E-score of `CTAATGCA` is reported as 0.106.
`AGGGAGGC` gave an E-score of -0.267.
`AGGCATCG` gave an E-score of -0.189.
The E-score of `ATAATTTC` is reported as 0.379.
`CACACCGA` has an E-score of -0.117.
With `GCGAACGC` the E-score was -0.137.
